Results gathered from unrelated publications.
Protocols differ between the studies behind these lines. ± marks the error that the study gave.
TRPM8: Transient receptor potential cation channel subfamily M member 8 (TRPM8, Homo sapiens, UniProt Q7Z2W7)
UniProt Q7Z2W7, sequence (whole entry, looked up): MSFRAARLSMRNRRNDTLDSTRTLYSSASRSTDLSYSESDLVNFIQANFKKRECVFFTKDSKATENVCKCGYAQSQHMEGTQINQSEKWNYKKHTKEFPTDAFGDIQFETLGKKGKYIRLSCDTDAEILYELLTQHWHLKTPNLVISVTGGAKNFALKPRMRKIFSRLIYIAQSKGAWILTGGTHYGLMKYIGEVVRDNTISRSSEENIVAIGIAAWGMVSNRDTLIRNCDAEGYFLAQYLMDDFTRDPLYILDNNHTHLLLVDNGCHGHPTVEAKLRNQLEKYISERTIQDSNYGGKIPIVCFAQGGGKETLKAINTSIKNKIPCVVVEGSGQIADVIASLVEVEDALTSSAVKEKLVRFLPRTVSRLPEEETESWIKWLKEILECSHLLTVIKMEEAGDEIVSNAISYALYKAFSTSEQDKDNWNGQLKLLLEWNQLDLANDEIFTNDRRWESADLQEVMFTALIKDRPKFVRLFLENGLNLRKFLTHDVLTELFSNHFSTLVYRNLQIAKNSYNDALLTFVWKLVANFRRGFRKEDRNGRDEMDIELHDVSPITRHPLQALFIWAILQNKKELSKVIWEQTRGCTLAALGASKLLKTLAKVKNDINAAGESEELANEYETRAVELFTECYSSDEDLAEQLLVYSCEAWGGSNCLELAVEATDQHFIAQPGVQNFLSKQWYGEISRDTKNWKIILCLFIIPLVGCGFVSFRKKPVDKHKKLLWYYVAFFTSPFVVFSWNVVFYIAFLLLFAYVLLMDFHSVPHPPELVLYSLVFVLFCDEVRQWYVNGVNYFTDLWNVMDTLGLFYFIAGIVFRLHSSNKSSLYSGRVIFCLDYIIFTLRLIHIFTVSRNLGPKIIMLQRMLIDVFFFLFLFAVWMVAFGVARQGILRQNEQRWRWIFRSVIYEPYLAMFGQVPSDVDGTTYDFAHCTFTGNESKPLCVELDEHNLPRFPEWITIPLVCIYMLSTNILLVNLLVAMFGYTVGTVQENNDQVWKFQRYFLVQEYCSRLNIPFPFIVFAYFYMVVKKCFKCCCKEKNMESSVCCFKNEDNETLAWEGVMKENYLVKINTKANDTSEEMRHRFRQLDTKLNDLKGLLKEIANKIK
spsB: Signal peptidase IB (spsB, Staphylococcus aureus, UniProt Q5HHB9)
UniProt Q5HHB9, sequence (whole entry, looked up): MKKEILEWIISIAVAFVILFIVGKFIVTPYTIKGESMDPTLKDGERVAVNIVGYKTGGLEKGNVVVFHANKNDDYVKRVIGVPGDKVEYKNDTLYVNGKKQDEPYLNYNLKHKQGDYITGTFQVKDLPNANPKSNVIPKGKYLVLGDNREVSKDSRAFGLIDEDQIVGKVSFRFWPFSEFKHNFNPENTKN
UniProt Q8N752, sequence (whole entry, looked up): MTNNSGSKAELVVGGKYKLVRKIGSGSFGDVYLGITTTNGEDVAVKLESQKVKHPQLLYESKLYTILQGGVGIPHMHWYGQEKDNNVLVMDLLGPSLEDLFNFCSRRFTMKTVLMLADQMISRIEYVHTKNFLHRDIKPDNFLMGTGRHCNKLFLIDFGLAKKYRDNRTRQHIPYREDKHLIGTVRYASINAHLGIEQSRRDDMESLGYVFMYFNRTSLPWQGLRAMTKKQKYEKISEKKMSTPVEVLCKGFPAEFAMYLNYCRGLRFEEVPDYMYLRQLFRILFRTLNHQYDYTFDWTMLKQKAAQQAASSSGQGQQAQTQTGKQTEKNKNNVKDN
UniProt Q13177, sequence (whole entry, looked up): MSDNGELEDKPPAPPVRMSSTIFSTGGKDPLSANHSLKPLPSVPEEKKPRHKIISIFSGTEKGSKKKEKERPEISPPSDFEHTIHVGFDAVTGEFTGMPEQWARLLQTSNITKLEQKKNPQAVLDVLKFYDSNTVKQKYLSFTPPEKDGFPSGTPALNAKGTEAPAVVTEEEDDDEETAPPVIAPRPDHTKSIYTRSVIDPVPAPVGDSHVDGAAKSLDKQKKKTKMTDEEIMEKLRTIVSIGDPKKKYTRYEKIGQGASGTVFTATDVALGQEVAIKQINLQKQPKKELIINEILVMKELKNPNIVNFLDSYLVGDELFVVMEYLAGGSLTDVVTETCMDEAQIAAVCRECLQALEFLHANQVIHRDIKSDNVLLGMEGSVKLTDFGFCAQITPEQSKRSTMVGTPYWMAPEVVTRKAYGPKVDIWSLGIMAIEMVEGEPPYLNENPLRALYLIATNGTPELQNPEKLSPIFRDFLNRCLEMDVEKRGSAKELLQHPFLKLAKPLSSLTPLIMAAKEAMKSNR
UniProt P29376, sequence (whole entry, looked up): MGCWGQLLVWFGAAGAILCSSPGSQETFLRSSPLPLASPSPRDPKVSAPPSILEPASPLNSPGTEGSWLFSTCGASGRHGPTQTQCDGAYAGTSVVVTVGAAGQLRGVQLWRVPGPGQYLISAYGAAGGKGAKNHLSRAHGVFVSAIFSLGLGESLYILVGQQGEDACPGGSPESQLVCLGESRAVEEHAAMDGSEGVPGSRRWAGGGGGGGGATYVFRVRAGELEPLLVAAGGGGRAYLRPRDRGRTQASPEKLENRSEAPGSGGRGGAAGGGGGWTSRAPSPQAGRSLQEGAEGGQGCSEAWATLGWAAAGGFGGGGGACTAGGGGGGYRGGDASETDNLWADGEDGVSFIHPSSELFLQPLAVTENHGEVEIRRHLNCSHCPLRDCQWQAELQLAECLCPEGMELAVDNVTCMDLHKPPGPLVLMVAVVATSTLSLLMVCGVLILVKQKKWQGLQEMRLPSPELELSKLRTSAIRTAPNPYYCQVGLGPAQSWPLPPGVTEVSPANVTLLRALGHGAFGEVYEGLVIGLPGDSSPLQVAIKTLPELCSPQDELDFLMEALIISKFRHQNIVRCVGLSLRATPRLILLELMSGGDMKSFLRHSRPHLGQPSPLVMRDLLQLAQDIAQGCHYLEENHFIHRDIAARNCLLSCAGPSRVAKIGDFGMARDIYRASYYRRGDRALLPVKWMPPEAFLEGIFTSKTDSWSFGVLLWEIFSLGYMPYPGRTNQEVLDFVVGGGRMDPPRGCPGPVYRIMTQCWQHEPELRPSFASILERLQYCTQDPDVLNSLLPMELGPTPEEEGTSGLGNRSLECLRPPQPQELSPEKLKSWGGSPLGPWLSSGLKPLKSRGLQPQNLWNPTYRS
UniProt Q9UEE5, sequence (whole entry, looked up): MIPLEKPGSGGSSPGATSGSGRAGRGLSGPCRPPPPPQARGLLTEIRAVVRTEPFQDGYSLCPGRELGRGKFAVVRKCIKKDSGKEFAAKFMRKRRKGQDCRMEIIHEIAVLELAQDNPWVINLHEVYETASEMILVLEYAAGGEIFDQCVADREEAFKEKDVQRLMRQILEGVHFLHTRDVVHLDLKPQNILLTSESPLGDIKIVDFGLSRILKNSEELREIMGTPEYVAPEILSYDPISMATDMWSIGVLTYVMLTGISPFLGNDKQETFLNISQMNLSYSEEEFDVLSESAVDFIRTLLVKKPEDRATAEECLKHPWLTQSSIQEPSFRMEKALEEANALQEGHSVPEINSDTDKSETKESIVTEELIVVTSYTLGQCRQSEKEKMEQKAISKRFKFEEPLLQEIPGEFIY
UniProt Q9H1R3, sequence (whole entry, looked up): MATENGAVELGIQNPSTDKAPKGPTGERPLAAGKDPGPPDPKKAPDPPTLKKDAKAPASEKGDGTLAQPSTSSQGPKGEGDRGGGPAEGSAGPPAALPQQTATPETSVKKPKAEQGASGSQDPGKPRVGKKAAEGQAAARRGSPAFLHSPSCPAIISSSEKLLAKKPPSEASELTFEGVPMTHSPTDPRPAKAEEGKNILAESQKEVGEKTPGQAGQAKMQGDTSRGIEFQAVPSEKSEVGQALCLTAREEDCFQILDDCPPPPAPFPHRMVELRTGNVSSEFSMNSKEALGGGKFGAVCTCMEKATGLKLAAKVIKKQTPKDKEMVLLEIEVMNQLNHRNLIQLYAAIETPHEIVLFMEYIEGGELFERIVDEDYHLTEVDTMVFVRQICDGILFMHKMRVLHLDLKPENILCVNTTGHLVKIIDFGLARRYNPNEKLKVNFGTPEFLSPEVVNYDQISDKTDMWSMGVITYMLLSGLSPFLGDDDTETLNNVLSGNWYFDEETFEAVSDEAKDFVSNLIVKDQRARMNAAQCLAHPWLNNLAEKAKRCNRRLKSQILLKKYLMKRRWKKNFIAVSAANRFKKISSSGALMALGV

SMILES | target or system | test | test system | conditions | how to read | measurement | value
C[C@@H](N)[C@H]1CC[C@H](C(=O)Nc2ccncc2)CC1 | TRPM8 | antagonist | HEK293 | 5 µM | reference: control | remaining activity | 107 ± 3.71%
COc1cc(F)ccc1-c1ncnc(Nc2cccc(C[S@](C)(=N)=O)c2)n1 | MAP4K2 (Homo sapiens, UniProt Q12851) | kinase activity |  | 10 µM, together with: 10 µM ATP |  | remaining activity | 32%
O=C(Cc1ccc(Cl)c(C(F)(F)F)c1)Nc1ccc2c(c1)OC(F)(F)O2 | spsB | peptidase activity, activator, FRET peptide cleavage | Staphylococcus aureus, membranes | 10 µM | reference: DMSO | remaining activity | 108%
CSc1nc(-c2ccnc(N[C@@H](C)c3ccccc3)c2)c(-c2ccc(F)cc2)[nH]1 (racemic) | TRPM8 | antagonist | HEK293 | 5 µM | reference: control | remaining activity | 85 ± 7.68%
Cn1cc(-c2ccc(-c3cncc(Cl)c3N3CCC4(CCNC4=O)CC3)cc2)cn1 | COLO 205 | gene expression, microarray, item: TNFSF10 mRNA |  | concentration not given, 2 h | reference: untreated cells | log2 fold change | -1.5
CC(C)c1nn(-c2c(Cl)cccc2Cl)c2nc(Cc3ccc(OCCO)cc3)[nH]c(=O)c12 | TRPM8 | antagonist | HEK293 | 5 µM | reference: control | remaining activity | 106 ± 5.47%
CNc1ncc2c(/C=C/C(=O)N3CCC(OC)CC3)nn(Cc3cccc(C(F)(F)F)c3)c2n1 | MYLK2 (Homo sapiens, UniProt Q9H1R3) | kinase activity, inhibitor |  | 1 µM | reference: untreated control | remaining activity | 95%
O=C(NC1CCC1)c1ccc2nc(-c3cccc(NS(=O)(=O)NCCN4CCCCC4)c3)cn2c1 | FLT3 (Homo sapiens, UniProt P36888, R834Q) | enzyme activity |  | 10 µM |  | remaining activity | 54%
CCc1ccc(NC(=O)Nc2ccc(Cl)c(C(F)(F)F)c2)cc1 | spsB | peptidase activity, activator, FRET peptide cleavage | Staphylococcus aureus, membranes | 100 µM | reference: DMSO | remaining activity | 136%
N#Cc1cnc2cnc(NCc3cccnc3)cc2c1Nc1ccc(F)c(Cl)c1 | TRPM8 | antagonist | HEK293 | 5 µM | reference: control | remaining activity | 94.5 ± 7.99%
Cc1cc(Nc2cc(N3CCN(C)CC3)nc(Sc3ccc(NC(=O)C4CC4)cc3)n2)[nH]n1 | STK17A (Homo sapiens, UniProt Q9UEE5) | kinase activity, KinaseProfiler |  | 0.03 µM, species human | reference: control | remaining activity | 97%
O=C1NC(=O)/C(=C/c2ccc(-c3ccc(F)cc3O)o2)S1 | PAK2 (Homo sapiens, UniProt Q13177) | enzyme activity |  | 10 µM |  | remaining activity | 89%
O=C(Nc1cccc(NC(=O)Nc2ccc(Cl)c(C(F)(F)F)c2)c1)Nc1ccc(Cl)c(C(F)(F)F)c1 | spsB | peptidase activity, activator, FRET peptide cleavage | Staphylococcus aureus, membranes | 10 µM | reference: DMSO | remaining activity | 153%
COc1cc(-c2cncc3c2CN(C)Cc2cc(N4CCNCC4)ccc2-3)cc(OC)c1OC | LTK (Homo sapiens, UniProt P29376) | kinase activity |  | 1 µM, human enzyme, together with: ATP 10 µM | reference: DMSO control | remaining activity | 107%
C=CC(=O)N1CCC[C@@H](n2nc(-c3ccc(Oc4ccccc4)cc3)c3c(N)ncnc32)C1 | CSNK1A1L (Homo sapiens, UniProt Q8N752) |  |  | 10 µM |  | remaining activity | 57.8%
COc1cc(Nc2ncc3c(n2)-c2ccc(Cl)cc2C(c2c(F)cccc2OC)=NC3)ccc1C(=O)O | MST1R | kinase activity |  | 1 µM |  | remaining activity | 108%
COc1cc(NC(=O)Nc2ccc(Cl)c(C(F)(F)F)c2)cc(OC)c1OC | spsB | peptidase activity, activator, FRET peptide cleavage | Staphylococcus aureus, membranes | 100 µM | reference: DMSO | remaining activity | 242%
O=C(Nc1ccc(Cl)cc1)c1ccccc1NCc1ccncc1 | TRPM8 | antagonist | HEK293 | 5 µM | reference: control | remaining activity | 103 ± 2.44%
COc1ccc(F)cc1C(=O)NCc1ccc(-c2nn([C@@H](C)C(F)(F)F)c(N)c2C(N)=O)cc1 | FLT3 (Homo sapiens, UniProt P36888) | kinase activity, inhibitor, HotSpot radiometric |  | 1000 nM, together with: ATP at Km |  | remaining activity | 89.6 ± 0.6%
O=C(Nc1ccc(Cl)c(C(F)(F)F)c1)Nc1ccc2ccccc2c1 | spsB | peptidase activity, activator, FRET peptide cleavage | Staphylococcus aureus, membranes | 50 µM | reference: DMSO | remaining activity | 153%
O=C(O)c1ccc(Nc2ncc3c(n2)-c2ccc(Cl)cc2C(c2c(F)cccc2F)=NC3)cc1 | Arg(h) | kinase activity |  | 1 µM |  | remaining activity | 40%
O=C(Nc1ccc2c(c1)CCC2)Nc1ccc(Cl)c(C(F)(F)F)c1 | spsB | peptidase activity, activator, FRET peptide cleavage | Staphylococcus aureus, membranes | 100 µM | reference: DMSO | remaining activity | 118%
Cc1ccc(NC2=CC(=O)c3sc(C)nc3C2=O)cc1 | TRPM8 | antagonist | HEK293 | 5 µM | reference: control | remaining activity | 75 ± 12.8%
CN(C(=O)Nc1ccc(Cl)c(C(F)(F)F)c1)c1ccc2c(c1)OC(F)(F)O2 | spsB | peptidase activity, activator, FRET peptide cleavage | Staphylococcus aureus, membranes | 50 µM | reference: DMSO | remaining activity | 139%
COc1ccc(-c2cnc3c(-c4ccsc4)cnn3c2)cc1 | TRPM8 | antagonist | HEK293 | 5 µM | reference: control | remaining activity | 85.8 ± 7.46%
CCCCNC(=O)c1ccc(NC(=O)Nc2ccc(Cl)c(C(F)(F)F)c2)cc1 | spsB | peptidase activity, activator, FRET peptide cleavage | Staphylococcus aureus, membranes | 10 µM | reference: DMSO | remaining activity | 121%
O=C(O)c1ccc2c3c1cccc3c(=O)n1c3ccccc3nc21 | TRPM8 | antagonist | HEK293 | 5 µM | reference: control | remaining activity | 108 ± 6.09%
